# Experimental data pooled from the literature.
# Each line is one published result; not all experiments were run side by side. Several values in a cell are separate wells, animals, samples, runs or records. ± gives the spread as reported.
# CYP3A4: Cytochrome P450 3A4 (CYP3A4, Homo sapiens, UniProt P08684)
# Sequence of UniProt P08684 (whole entry, looked up): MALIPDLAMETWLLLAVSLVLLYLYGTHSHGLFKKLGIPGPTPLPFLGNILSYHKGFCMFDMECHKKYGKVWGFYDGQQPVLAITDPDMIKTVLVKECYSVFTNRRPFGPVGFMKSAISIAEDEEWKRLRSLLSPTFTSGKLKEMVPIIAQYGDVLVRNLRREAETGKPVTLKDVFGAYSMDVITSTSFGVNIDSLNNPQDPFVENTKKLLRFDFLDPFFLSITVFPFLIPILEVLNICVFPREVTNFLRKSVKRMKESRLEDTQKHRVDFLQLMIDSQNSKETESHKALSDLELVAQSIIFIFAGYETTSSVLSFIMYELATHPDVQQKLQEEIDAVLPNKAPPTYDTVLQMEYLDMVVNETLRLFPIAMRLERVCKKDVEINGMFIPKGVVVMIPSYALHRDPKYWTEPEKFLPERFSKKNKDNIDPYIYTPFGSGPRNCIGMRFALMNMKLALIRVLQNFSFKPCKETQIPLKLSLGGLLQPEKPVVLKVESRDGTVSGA
# ALB: Albumin (ALB, Homo sapiens, UniProt P02768)
# Sequence of UniProt O75469 (whole entry, looked up): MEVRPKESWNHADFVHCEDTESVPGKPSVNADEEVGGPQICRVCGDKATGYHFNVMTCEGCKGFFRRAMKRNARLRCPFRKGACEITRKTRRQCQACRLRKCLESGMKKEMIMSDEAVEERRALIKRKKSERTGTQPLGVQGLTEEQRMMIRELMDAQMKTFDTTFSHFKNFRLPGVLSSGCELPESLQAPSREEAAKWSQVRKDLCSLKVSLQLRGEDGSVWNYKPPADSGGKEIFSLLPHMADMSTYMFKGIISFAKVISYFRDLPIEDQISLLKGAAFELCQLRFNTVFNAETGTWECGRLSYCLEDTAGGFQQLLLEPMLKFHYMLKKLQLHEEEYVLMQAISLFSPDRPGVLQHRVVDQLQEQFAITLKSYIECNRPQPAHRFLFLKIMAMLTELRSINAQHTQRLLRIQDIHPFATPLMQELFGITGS
# Sequence of UniProt O15244 (whole entry, looked up): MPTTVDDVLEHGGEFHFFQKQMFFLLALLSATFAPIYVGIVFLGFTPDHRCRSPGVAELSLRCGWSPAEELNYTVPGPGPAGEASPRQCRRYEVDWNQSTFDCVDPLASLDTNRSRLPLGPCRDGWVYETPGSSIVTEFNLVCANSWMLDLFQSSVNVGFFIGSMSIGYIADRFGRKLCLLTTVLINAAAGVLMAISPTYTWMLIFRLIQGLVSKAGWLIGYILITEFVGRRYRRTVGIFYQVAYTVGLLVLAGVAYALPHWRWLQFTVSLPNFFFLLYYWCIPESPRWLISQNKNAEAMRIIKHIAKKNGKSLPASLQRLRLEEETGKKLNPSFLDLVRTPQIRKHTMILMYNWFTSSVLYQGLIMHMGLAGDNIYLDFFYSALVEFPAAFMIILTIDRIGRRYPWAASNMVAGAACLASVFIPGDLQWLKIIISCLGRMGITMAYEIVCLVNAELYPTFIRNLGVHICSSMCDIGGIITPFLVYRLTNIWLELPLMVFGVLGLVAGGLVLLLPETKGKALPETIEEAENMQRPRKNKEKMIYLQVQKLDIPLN
SMILES,target or system,test,system,conditions,how to read,quantity,result
OC(CCN1CC=C(c2ccc(F)cc2)CC1)c1ccc(F)c2ccccc12 (stereo not drawn),Salmonella typhimurium,"genotoxicity, SOS/umu test",TA1535/pSK1002,"0.031 mg/mL, 4 h, without S9, full range",,induction factor,1.4
Cc1cc(C(=O)NC(C)(C)COc2cccc3c2C(N)=NS(=O)(=O)N3)cc(C)n1,Escherichia coli,"Ames test, confirmatory",WP2 uvrA,5000 µg/plate,reference: solvent control,revertant ratio,0.7
CCN(CC)C(=O)[C@@H]1C=C2c3cccc4[nH]cc(c34)C[C@H]2N(C)C1,,refers to: increased appetite,healthy volunteers,"dose not given, 0 to 12 h","reference: placebo, direction not given",List of Complaints score,0
Cn1ncc(-c2nc(N[C@H]3CC[C@H](N)CC3)ncc2Cl)c1CC1CC1,,refers to: hypokalemia any grade,human patients phase I,dose not given,,adverse event incidence,53%
COCCN(CCOC)N=O,Escherichia coli,"mutagenicity, Ames plate incorporation",WP2 uvrA pKM101,"50 µg/plate, 3 d, without S9, methanol",,revertant colonies per plate,128 ± 10
CCC1(c2ccccc2)C(=O)NC(=O)NC1=O,CYP2B6 human,inducer,hepatocytes lot LTG,750 µM,reference: DMSO,relative enzyme activity,11.9
CN(N=O)c1ccc(F)cc1,Salmonella typhimurium,"mutagenicity, Ames plate incorporation",TA98,"150 µg/plate, 3 d, without S9, methanol",,revertant colonies per plate,20 ± 3
O=[N+]([O-])c1ccc(N2CCC(NCCC(O)c3ccc(F)c4ccccc34)CC2)c(C(F)(F)F)c1 (stereo not drawn),Salmonella typhimurium,SOS/umu test,"TA1535/pSK1002, TGA medium","1.53e-05 mg/mL, 4 h, without S9",,survival,105%
O=C1c2c(O)c(=O)ccn2N([C@@H]2c3ccccc3SCc3c2ccc(F)c3F)[C@@H]2COCCN12,,,"BALB/c mouse, plasma","oral, 15 mg/kg baloxavir marboxil every 12 h, 24 h",,plasma concentration,9.03 ng/mL
Cc1ncc(OC[C@@]2(c3cccc(F)c3)C[C@H]2C(=O)Nc2ccc(F)cn2)c(C)n1,MDCK,permeability basolateral to apical,,"1 µM, 90 min, pH 7.4 apical to 7.4 basolateral",,Papp,32 ×10⁻⁶ cm/s and 37.6 ×10⁻⁶ cm/s
CC(C)C[C@H](NC(=O)[C@H](Cc1c[nH]cn1)NC(=O)[C@H](Cc1c[nH]cn1)NC(=O)[C@H](Cc1ccc(O)cc1)NC(=O)[C@@H](N)CS)C(=O)N[C@H](C(=O)N[C@@H](CC(C)C)C(=O)N[C@H](C(=O)N[C@H](C(=O)NCC(=O)NCC(=O)N[C@@H](CO)C(=O)O)C(C)C)[C@@H](C)O)C(C)C,Epstein-Barr virus,,"B-NDG humanized mouse, EBV-infected","20 mg/kg, day 42",,body weight,24.4 g and 21.7 g
CC(C)CC(=O)OC[C@H]1O[C@@](C#N)(c2ccc3c(N)ncnn23)[C@H](O)[C@@H]1O,CYP3A4,metabolic stability,recombinant enzyme,"1 µM, 30 min",,remaining compound,1.99 ± 0.161%
O=C(C1CCCCC1)N1CCN(S(=O)(=O)c2cccc3cnccc23)CC1,Caco-2/TC-7 monolayers,permeability,,"20 µM, 120 min",,recovery,87%
Oc1ccc(C2(c3ccc(O)cc3)c3ccccc3-c3ccccc32)cc1,"HepG2 spheroids, dissociated",annexin V-FITC/PI flow cytometry,,"0.1 µM, 24 h",,early apoptotic cells,13.8 ± 3.34%
COc1ccc(-n2nc(C(C)=O)s/c2=N\N=C(/C)c2ccc(NC(C)=O)cc2)cc1,WI-38,,,"0.625 µM, 24 (unit not given)",,viability,3.48%
OC[C@H]1O[C@@H](Oc2cc3c(O)cc(O)cc3[o+]c2-c2cc(O)c(O)c(O)c2)[C@H](O)[C@@H](O)[C@@H]1O,ALB,"binding, fluorescence quenching",,"pH 7, 20 °C, HSA 2 µM",,Kd,10.8 ± 0.14 µM
Cc1ncc2n1-c1ccc(Cl)cc1C(c1ccccc1F)=NC2,CYP3A4,,"human, plasma","oral, 2 mg, day 1, alone, geometric mean",,half-life,2.95 h
Cc1c(Cl)c(=O)oc2cc(OCCCC[Se]C#N)ccc12,Caenorhabditis elegans,,"N2 Bristol, NGM with E. coli OP50","100 µM, 3 days",,developmental defects,5.72%
CC(C)N(N=O)C(C)C,Escherichia coli,"mutagenicity, Ames plate incorporation",WP2 uvrA pKM101,"1500 µg/plate, without S9, methanol",,revertant colonies per plate,160 ± 12
CC[C@H](C)[C@H](NC(=O)[C@H](CCCCN)NC(=O)[C@H](CCCCN)NC(=O)CNC(=O)[C@H](CCCCN)NC(=O)[C@H](CC(C)C)NC(=O)[C@H](CCCCN)NC(=O)[C@H](CCCNC(=N)N)NC(=O)[C@@H](NC(=O)[C@H](CC(C)C)NC(=O)[C@H](CCCNC(=N)N)NC(=O)[C@@H](N)CCCNC(=N)N)[C@@H](C)CC)C(=O)N[C@@H](Cc1ccc(O)cc1)C(=O)N[C@@H](CC(C)C)C(=O)N[C@@H](Cc1ccc(O)cc1)C(=O)N[C@@H](Cc1ccccc1)C(=O)N[C@@H](CCCCN)C(=O)N[C@@H](CC(C)C)C(=O)N[C@@H](CCC(N)=O)C(=O)N[C@@H](CC(C)C)C(=O)N[C@@H](CC(C)C)C(=O)N[C@@H](CCCCN)C(=O)N[C@@H](CCCCN)C(N)=O,trypsin,"substrate, HPLC",,"150 µM, pH 7.4, 37 °C, together with: trypsin 0.06 µg/mL",,time to near-complete degradation,18 to 20 h
O=NN1CCN(C2CCCC2)CC1,Escherichia coli,"mutagenicity, Ames plate incorporation",WP2 uvrA pKM101,"1500 µg/plate, 3 d, without S9, methanol",,revertant colonies per plate,103 ± 3
COc1ccc2c(c1)[C@]13CCCC[C@@H]1[C@H](C2)N(C)CC3,,,"C57BL/6 mouse, plasma","oral, 50 µg/g, 300 min",,plasma concentration,0 ng/mL
CO/N=C1\C[C@]2(C[C@@H]3C[C@@H](C/C=C(\C)C[C@@H](C)/C=C/C=C4\CO[C@@H]5[C@H](O)C(C)=C[C@@H](C(=O)O3)[C@]45O)O2)O[C@H](/C(C)=C/C(C)C)[C@H]1C,"NR1I2 (Homo sapiens, UniProt O75469)",,,concentration not given,,activity,inactive
CNC(=O)c1c(N(C)N=O)ncn1C,Escherichia coli,plate incorporation,"WP2uvrA pKM101, water","500 µg/plate, without S9",,revertant colonies per plate,87.3 ± 12
CCOC(=O)c1c(CSc2ccccc2)n(C)c2cc(Br)c(O)c(CN(C)C)c12,"SLC22A2 (Homo sapiens, UniProt O15244)","transport, inhibitor",transiently transfected cells,"100 µM, 10 (unit not given), together with: metformin",,inhibition,86.2%
CC(C)(C)[C@H](NC(=O)C(F)(F)F)C(=O)N1C[C@H]2[C@@H]([C@H]1C(=O)N[C@H](C#N)C[C@@H]1CCNC1=O)C2(C)C,,,human hepatocytes,scaled to liver,,intrinsic clearance,< 8.9 mL/min/kg
O=c1ccc2ccccc2o1,NHEK,AhR translocation,,"concentration not given, 24 h",,chance response,0%
CN(C)CCc1c[nH]c2cccc(OC(=O)CCCC(=O)O)c12.Cl,ALB,"substrate, refers to: 4-hydroxytryptamine",human serum 4%,,,time to complete conversion,≤ 30 min
CN(CC(C)(C)C)N=O,Escherichia coli,"mutagenicity, Ames plate incorporation",WP2 uvrA pKM101,"150 µg/plate, without S9, methanol",,revertant colonies per plate,121 ± 10
CC(c1ccccc1)(c1ccc(O)cc1)c1ccc(O)cc1,HepG2 spheroids,annexin V-FITC/PI flow cytometry,,"1 µM, 24 h",,necrotic cells,7.54 ± 2.51%

# A few entries again:
SMILES,target or system,test,system,conditions,how to read,quantity,result
Cn1ncc(-c2nc(N[C@H]3CC[C@H](N)CC3)ncc2Cl)c1CC1CC1,,refers to: hypokalemia any grade,human patients phase I,dose not given,,adverse event incidence,53%
CC(C)C[C@H](NC(=O)[C@H](Cc1c[nH]cn1)NC(=O)[C@H](Cc1c[nH]cn1)NC(=O)[C@H](Cc1ccc(O)cc1)NC(=O)[C@@H](N)CS)C(=O)N[C@H](C(=O)N[C@@H](CC(C)C)C(=O)N[C@H](C(=O)N[C@H](C(=O)NCC(=O)NCC(=O)N[C@@H](CO)C(=O)O)C(C)C)[C@@H](C)O)C(C)C,Epstein-Barr virus,,"B-NDG humanized mouse, EBV-infected","20 mg/kg, day 42",,body weight,24.4 g and 21.7 g
OC(CCN1CC=C(c2ccc(F)cc2)CC1)c1ccc(F)c2ccccc12 (stereo not drawn),Salmonella typhimurium,"genotoxicity, SOS/umu test",TA1535/pSK1002,"0.031 mg/mL, 4 h, without S9, full range",,induction factor,1.4
COc1ccc(-n2nc(C(C)=O)s/c2=N\N=C(/C)c2ccc(NC(C)=O)cc2)cc1,WI-38,,,"0.625 µM, 24 (unit not given)",,viability,3.48%
